Measurements pooled from the literature.
A part holds a random share of what one study measured. Several values in a cell are separate wells, animals, samples, runs or records.
UniProt Q06187, sequence (whole entry, looked up): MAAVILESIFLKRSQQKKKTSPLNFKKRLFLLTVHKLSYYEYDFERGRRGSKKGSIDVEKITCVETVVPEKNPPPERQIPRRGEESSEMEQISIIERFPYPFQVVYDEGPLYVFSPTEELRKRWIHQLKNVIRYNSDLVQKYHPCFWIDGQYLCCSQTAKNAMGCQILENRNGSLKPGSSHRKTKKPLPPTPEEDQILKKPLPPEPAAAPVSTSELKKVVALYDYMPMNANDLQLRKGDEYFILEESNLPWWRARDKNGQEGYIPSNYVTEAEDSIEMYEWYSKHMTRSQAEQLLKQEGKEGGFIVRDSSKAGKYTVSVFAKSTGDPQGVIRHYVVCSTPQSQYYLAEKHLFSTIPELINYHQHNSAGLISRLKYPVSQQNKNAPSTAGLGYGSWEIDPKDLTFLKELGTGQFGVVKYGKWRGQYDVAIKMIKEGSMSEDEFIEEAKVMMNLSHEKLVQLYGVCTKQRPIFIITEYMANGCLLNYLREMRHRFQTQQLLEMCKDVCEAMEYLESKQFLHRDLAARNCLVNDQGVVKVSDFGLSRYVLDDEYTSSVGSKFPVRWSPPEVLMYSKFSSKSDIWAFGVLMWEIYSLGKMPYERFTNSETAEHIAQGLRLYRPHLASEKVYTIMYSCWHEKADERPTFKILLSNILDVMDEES

Block 1 — cell line: U-87 MG; tested at: concentration not given; reference: DMSO
SMILES: CCN1/C(=C/C=C2\CCCC(/C=C/C3=[N+](CC)c4ccccc4C3(C)C)=C2NCCCCCCCCN2CCC(Nc3nc4ccccc4n3Cc3ccc(F)cc3)CC2)C(C)(C)c2ccccc21
measured	log2 fold change
RAB5A mRNA	0.851
KIF20A mRNA	-2.9
ADGRB2 mRNA	-1.03
ACAP2 mRNA	0.933
BTG1 mRNA	1.82
NFIX mRNA	-1.08
TTC29 mRNA	2.64
DPF2 mRNA	0.819
HOMER1 mRNA	1.06
LGR4 mRNA	-1.42
BMPR1B mRNA	1.46

Block 2 — observed: thermal unfolding; method: differential scanning fluorimetry; tested at: 5.5 µM; reading: higher = more unfolded
SMILES: C[C@@H]1CN(c2ccc(-c3cc(C(=O)NCCOCCOCCOCCOCCNC(=O)Cn4cc(-c5[nH]cc(C(=O)N[C@@H](CC(N)=O)c6ccc(F)c(Cl)c6)c5-c5ccc(Cl)cc5F)cn4)ccc3F)cc2NC(=O)c2c[nH]c(=O)cc2C(F)(F)F)C[C@H](C)N1C
DCAF1: DDB1- and CUL4-associated factor 1 (DCAF1, Homo sapiens, UniProt Q9Y4B6)
UniProt Q9Y4B6, sequence (whole entry, looked up): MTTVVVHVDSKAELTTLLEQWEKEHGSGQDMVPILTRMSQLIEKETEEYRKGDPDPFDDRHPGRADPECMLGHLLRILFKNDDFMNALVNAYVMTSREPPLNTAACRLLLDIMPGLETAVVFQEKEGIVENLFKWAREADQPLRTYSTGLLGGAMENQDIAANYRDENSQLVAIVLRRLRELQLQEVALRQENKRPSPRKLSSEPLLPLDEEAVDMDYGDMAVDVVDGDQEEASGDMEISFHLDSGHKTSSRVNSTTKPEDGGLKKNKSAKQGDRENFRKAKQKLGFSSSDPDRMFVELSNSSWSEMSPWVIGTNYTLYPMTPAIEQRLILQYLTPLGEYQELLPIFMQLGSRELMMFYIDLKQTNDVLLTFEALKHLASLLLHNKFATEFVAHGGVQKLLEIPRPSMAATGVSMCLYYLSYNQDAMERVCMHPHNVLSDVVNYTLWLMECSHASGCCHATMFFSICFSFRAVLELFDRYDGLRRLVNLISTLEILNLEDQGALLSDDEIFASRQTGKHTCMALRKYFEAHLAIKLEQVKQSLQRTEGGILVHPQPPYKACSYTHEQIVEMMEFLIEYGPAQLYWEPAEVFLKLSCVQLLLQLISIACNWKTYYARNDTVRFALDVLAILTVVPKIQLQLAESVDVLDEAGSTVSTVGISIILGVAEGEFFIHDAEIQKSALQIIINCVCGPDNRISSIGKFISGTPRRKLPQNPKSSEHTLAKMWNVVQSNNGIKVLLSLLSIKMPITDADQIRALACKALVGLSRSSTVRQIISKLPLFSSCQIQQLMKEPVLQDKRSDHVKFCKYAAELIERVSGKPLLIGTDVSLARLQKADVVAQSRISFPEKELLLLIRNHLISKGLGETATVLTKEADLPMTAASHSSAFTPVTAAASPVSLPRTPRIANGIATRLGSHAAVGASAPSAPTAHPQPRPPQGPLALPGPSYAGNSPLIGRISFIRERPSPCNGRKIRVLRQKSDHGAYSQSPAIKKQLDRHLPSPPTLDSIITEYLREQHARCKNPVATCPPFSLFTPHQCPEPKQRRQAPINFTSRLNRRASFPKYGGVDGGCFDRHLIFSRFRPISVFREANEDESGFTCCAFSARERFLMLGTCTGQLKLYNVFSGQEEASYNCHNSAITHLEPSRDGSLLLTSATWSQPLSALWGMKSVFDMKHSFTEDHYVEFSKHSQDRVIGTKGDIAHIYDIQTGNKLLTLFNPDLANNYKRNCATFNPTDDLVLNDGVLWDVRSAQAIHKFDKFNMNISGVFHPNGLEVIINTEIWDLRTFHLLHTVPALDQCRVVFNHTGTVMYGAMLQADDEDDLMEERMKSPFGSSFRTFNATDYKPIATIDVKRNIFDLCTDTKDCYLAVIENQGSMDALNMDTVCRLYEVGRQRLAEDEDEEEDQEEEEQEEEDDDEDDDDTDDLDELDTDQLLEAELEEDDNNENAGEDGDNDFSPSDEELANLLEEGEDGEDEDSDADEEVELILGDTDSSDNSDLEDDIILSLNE
WDR5: WD repeat-containing protein 5 (WDR5, Homo sapiens, UniProt P61964)
target	temperature	SYPRO Orange fluorescence [a.u.]
DCAF1	64.01 °C	54200
DCAF1	80.21 °C	44000
DCAF1	29 °C	8070
DCAF1	79.41 °C	44800
WDR5	83.21 °C	34200
WDR5	44.4 °C	14500
WDR5	80.21 °C	24000

Mixed results
PKMYT1: Membrane-associated tyrosine- and threonine-specific cdc2-inhibitory kinase (PKMYT1, Homo sapiens, UniProt Q99640)
UniProt Q99640, sequence (whole entry, looked up): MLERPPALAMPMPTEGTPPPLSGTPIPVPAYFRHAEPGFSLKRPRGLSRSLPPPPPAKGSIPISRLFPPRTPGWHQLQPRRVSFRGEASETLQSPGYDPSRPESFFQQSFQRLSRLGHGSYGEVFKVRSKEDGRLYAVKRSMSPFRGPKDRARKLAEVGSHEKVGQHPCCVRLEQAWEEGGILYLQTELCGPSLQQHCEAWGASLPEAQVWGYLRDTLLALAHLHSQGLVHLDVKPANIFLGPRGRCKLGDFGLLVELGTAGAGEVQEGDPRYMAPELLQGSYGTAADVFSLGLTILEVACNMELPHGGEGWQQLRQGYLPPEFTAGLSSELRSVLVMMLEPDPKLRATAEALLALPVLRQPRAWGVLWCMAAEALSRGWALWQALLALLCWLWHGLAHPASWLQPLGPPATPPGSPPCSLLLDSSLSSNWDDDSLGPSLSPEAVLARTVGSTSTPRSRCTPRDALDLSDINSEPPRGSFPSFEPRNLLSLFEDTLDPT
SMILES	tested on	test	test system	conditions	quantity	result
Cc1ccc(O)c(C)c1-c1cnc2[nH]c(-c3cnc(N4CCC(CN5CCN(c6ccc(NC7CCC(=O)NC7=O)cc6F)CC5)CC4)nc3)cc2c1C#N (centres unmarked)			Beagle dog, male, plasma	oral, 5 mg/kg	half-life	6.7 h
CN(C1COC1)C(C)(C)/C=C(\C#N)C(=O)N1CCC[C@H]1Cn1nc(-c2ccc(Oc3ccccc3)cc2F)c2c(N)ncnc21	Tyrosine-protein kinase BTK (BTK, Homo sapiens, UniProt Q06187)	enzyme activity, inhibitor			kinact	0.0047 s⁻¹
Cc1ccc(O)c(C)c1-c1cnc2[nH]c(-c3cnc(N4CCC5(CC4)CC(N4CCN(c6ccc(N[C@H]7CCC(=O)N(C)C7=O)cc6F)CC4)CO5)nc3)cc2c1C#N (single isomer, unassigned)	PKMYT1	degrader, automated immunoblot (Jess)		0.46 nM, 24 h	degradation	18.4%
Cc1ncc(-c2cc3c(C(N)=O)c(-c4c(C)ccc(O)c4C)cnc3[nH]2)cn1	PKMYT1	binding, HTRF		123.46 nM	inhibition	43.8% and 45.6%
Cc1ccc(O)c(C)c1-c1cnc2[nH]c(-c3cnc(N4CCC5(CC4)CC(N4CCN(c6ccc(N[C@H]7CCC(=O)NC7=O)cc6F)CC4)CO5)nc3)cc2c1C#N (single isomer, unassigned)	HCC1806	cell proliferation		1.524 nM	inhibition	5.84% and -2.99% and -0.43%
